Measured values pooled from the literature.
Protocols differ between the studies behind these lines. ± marks the error that the study gave.
folP: Dihydropteroate synthase (folP, Bacteria, UniProt P0AC13)
Chain of UniProt P0AC13 (whole entry, looked up): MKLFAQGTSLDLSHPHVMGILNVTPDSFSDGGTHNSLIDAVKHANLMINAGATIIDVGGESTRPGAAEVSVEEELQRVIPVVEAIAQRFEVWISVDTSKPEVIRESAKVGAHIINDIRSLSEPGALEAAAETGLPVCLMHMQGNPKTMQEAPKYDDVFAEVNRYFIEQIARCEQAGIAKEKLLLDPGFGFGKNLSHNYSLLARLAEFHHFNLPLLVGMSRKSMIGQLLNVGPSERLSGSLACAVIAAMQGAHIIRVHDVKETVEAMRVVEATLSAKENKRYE
Chain of UniProt Q9HB29 (whole entry, looked up): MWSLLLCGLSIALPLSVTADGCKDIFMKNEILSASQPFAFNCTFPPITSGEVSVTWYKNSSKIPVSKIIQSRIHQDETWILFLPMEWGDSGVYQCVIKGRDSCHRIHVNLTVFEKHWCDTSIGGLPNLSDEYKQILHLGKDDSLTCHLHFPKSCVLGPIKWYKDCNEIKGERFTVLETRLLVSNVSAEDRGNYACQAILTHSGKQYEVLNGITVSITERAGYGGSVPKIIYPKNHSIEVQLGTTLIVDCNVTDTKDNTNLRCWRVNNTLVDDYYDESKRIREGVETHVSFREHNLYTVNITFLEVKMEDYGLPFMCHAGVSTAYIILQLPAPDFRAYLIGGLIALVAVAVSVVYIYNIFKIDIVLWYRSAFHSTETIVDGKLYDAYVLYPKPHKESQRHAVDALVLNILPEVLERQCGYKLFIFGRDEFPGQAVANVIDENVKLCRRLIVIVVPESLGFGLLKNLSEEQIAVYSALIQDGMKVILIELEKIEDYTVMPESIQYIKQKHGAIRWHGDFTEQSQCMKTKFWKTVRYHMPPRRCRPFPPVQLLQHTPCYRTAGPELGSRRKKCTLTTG
Chain of UniProt O75581 (whole entry, looked up): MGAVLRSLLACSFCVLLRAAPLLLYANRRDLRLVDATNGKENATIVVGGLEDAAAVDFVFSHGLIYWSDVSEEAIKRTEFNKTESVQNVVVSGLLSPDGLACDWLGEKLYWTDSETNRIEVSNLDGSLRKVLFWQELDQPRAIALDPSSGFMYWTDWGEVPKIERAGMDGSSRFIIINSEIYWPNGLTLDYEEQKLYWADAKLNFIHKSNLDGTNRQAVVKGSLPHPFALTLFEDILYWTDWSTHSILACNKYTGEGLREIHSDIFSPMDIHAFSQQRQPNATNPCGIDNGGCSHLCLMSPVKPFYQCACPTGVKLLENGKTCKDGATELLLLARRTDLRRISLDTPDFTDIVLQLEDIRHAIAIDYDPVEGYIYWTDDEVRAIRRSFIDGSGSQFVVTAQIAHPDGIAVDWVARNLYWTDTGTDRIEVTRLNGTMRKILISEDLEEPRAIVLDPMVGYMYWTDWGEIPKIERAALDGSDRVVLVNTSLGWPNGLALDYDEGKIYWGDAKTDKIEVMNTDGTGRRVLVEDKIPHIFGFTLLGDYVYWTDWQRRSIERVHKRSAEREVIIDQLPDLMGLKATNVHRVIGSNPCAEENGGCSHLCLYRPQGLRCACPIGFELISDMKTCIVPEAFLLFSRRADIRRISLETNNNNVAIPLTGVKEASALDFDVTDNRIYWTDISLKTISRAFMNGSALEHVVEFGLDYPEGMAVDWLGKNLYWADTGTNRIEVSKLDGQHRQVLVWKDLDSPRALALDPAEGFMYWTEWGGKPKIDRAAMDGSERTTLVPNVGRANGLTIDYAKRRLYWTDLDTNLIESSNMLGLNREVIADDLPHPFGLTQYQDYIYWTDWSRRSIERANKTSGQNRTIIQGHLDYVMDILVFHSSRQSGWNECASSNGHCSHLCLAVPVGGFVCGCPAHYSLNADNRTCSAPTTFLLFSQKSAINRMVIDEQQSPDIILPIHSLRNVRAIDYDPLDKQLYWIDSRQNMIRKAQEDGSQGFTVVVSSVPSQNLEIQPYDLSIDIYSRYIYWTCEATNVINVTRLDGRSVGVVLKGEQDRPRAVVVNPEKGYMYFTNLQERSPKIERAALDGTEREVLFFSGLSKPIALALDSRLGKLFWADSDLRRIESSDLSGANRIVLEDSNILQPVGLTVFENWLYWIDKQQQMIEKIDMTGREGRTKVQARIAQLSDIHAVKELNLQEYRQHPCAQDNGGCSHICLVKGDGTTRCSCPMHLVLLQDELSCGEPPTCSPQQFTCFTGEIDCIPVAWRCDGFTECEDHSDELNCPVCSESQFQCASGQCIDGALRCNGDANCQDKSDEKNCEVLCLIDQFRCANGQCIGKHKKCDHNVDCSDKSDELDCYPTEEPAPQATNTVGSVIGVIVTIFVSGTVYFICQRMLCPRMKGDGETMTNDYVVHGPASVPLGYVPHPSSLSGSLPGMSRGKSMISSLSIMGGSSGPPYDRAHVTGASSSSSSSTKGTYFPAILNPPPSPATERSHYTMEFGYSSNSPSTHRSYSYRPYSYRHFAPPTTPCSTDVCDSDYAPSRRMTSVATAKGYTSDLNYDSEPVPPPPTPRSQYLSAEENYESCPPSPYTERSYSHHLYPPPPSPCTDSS
Chain of UniProt O94762 (whole entry, looked up): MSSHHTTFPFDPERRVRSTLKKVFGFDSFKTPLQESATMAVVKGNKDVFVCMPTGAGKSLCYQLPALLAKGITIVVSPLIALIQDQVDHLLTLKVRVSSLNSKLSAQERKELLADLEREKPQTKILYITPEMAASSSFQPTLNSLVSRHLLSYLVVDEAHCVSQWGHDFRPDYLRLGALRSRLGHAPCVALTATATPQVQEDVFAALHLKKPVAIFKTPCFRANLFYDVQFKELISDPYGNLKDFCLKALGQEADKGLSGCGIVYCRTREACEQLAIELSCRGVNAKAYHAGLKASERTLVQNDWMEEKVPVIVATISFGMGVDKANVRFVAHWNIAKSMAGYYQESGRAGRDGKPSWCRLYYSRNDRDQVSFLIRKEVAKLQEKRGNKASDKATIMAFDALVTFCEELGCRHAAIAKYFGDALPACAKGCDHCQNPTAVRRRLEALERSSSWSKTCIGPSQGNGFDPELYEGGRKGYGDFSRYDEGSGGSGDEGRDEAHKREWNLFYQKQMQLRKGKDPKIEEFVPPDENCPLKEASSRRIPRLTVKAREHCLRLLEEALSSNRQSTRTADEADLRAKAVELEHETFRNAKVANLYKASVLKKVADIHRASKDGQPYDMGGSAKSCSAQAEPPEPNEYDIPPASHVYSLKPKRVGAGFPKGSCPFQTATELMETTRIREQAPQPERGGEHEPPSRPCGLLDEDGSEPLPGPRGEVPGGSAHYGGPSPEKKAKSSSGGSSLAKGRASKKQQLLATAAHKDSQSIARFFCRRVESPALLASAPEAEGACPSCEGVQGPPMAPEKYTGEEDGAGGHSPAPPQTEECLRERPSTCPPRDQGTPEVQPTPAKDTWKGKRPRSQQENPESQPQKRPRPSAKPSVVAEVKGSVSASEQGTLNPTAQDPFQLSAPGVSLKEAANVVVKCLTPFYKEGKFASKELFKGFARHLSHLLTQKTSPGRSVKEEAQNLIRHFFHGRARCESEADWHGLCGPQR
Chain of UniProt Q9NQY0 (whole entry, looked up): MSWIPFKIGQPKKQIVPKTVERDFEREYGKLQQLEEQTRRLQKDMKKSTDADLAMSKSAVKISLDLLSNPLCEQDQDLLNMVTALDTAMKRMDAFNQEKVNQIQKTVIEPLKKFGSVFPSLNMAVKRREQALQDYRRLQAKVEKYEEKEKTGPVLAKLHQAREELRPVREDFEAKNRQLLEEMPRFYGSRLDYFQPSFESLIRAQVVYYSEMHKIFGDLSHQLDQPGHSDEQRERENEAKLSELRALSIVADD
Chain of UniProt Q14145 (whole entry, unmodified, looked up): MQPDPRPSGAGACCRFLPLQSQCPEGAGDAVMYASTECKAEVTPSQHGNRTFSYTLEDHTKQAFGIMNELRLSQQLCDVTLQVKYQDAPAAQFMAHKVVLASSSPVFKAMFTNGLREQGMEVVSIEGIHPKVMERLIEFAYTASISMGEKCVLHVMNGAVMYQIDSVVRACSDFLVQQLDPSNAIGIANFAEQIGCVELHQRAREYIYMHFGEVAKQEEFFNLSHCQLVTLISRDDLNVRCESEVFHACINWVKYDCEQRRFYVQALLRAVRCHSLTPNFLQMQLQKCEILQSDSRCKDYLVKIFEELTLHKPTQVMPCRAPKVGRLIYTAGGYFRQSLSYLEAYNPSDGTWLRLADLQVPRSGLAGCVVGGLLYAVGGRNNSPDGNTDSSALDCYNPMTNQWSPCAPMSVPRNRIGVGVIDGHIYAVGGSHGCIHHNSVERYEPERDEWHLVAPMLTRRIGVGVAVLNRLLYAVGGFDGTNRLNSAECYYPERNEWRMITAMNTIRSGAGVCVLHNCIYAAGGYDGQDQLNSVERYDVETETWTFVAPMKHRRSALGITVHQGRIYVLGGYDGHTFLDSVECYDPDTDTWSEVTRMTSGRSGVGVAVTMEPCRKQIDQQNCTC

The melting temperature of `Cn1nc(CCC#N)c(=O)c2c(=O)[nH]c(N)nc21` is reported as 61.2 °C (folP; CETSA HiBiT; Escherichia coli, whole cells).
The remaining activity of `COc1ccccc1-c1ccncc1C(=O)Nc1nnc(OCc2ccc(Cl)cc2)s1` is reported as 110% (RECQL5 (Homo sapiens, UniProt O94762); ATPase activity, ADP-Glo; 0.06 µM, 1 h).
For `C=CC(=O)Nc1cccc(Cn2ncc3cnc(Nc4cnn(CCOC)c4)nc32)c1`, “percent of control” read 99% (NEK9 human; binding, KINOMEscan; 100 nM; lower = stronger binding).
Under “log2 fold change”, `COC1CN([C@H]2CC[C@H]([C@@]3(C)Oc4c(Cl)cc(C(=O)NCc5c(SC)cc(C)[nH]c5=O)c(C)c4O3)CC2)C1` is recorded as 0.21 (RNA-seq, item: NDNF mouse homolog; mouse, HT-1376 xenograft, whole blood; dose not given; reference: vehicle).
The iBAQ abundance of `N#CN1CC[C@H](C(=O)Nc2nc3c(s2)CN(C(=O)Cn2cc(COCCOCCOCCOCCNC(=O)CCCC[C@@H]4SC[C@@H]5NC(=O)N[C@@H]54)nn2)CC3)C1` is reported as 1.39e+06 (Ubiquitin carboxyl-terminal hydrolase 10 (USP10, Homo sapiens, UniProt Q14694); probe binding, affinity probe, neutravidin pull-down LC-MS/MS; HEK293T, cell lysate; 5 µM, 1 h, mean of three replicates, unit not given; higher = more pulled down).
`CC(=O)N[C@@H](CO)C(=O)N[C@@H](C)C(=O)N[C@@H](CCCCN)C(=O)N[C@@H](C)C(=O)N[C@@H](C)C(=O)N[C@@H](CC(=O)O)C(=O)N[C@@H](CC(=O)O)C(=O)N1CCC[C@H]1C(=O)N[C@@H](CCC(=O)O)C(=O)N[C@@H](CC(N)=O)C(=O)NCC(=O)N[C@@H](CCC(=O)O)C(=O)N[C@@H](CCCNC(=N)N)C(=O)N[C@@H](CCC(=O)O)C(=O)N[C@@H](CO)C(=O)N[C@@H](Cc1c[nH]cn1)C(=O)N[C@H](C(=O)N1CCC[C@H]1C(=O)N[C@H](C(=O)N[C@@H](CO)C(N)=O)C(C)C)[C@@H](C)O` has a ΔG of -8.2 ± 0.07 kcal/mol (Kelch-like ECH-associated protein 1, Kelch domain (KEAP1, Homo sapiens, UniProt Q14145); binding, ITC; pH 7, 298.15 K).
Under “log2 fold change”, `Cc1ncsc1-c1ccc(C(C)NC(=O)C2CC(O)CN2C(=O)C(NC(=O)CCCCCCCCCCN2CCCC(Nc3ncc(Cl)c(Nc4ccccc4S(=O)(=O)C(C)C)n3)C2)C(C)(C)C)cc1` (stereo not drawn) is recorded as -1.43 (22Rv1; RNA-seq, item: ZNF132 mRNA; concentration not given; reference: DMSO).
The Cmax of `C=C(NC(=O)c1csc(-c2nc3c(cc2O)-c2nc(cs2)C(=O)NC(C(C)O)C(=O)NC(=C(C)OC)c2nc(cs2)C(=O)NC2c4nc(cs4)C(=O)NC(COC(=O)c4c5c6c(cccc6n4O)COC(=O)C(OC4CC(C)(O)C(N(C)C)C(C)O4)C2OC5)c2nc-3cs2)n1)C(N)=O` (stereo not drawn) is reported as 36100 ng/mL (female cynomolgus monkey, plasma; intravenous, 9 mg/kg, single dose, infusion).
Under “activity vs control”, `CCC1(CC)C(=O)N(c2cc(C(=O)OC)cc(C(=O)N3CCN(Cc4ccc(Br)cc4)CC3)c2)C1=O` is recorded as 25% (Dipeptidyl peptidase 9 (DPP9, Homo sapiens, UniProt Q86TI2); enzyme activity, inhibitor; 5 µM).
With `CC(C)[C@@H]1NC(=O)[C@H](Cc2ccccc2)NC(=O)CSC[C@@H](C(N)=O)NC(=O)[C@H](CCC(=O)O)NC(=O)[C@H](CO)NC(=O)[C@H](Cc2c[nH]c3cccc(Cl)c23)NC(=O)[C@H](C2CCCCC2)NC(=O)[C@H](C(C)C)NC(=O)[C@H](Cc2ccc(O)cc2)NC(=O)[C@H](CC(=O)O)NC(=O)[C@H](Cc2c[nH]c3ccccc23)NC(=O)[C@H](Cc2ccc(N)nc2)NC(=O)[C@H](Cc2c[nH]c3ccc(Cl)cc23)NC(=O)[C@H](CCC(=O)O)NC1=O` the remaining activity was 98.3% (Interleukin-1 receptor-like 2 (IL1RL2, Homo sapiens, UniProt Q9HB29); reporter gene (SEAP), inhibitor, HEK-Blue IL-36R reporter; HEK-Blue IL-36R cells; 0.005 µM, 6 h, together with: IL-36γ 0.1 ng/mL).
For `CC(=O)NCCCCCNc1nc(NCCCCCCN(C)C)c2cc(NC(=O)/C=C/CN(C)C)ccc2n1`, the remaining signal was 58.3% (Histone-lysine N-methyltransferase SETDB1 (SETDB1, Homo sapiens, UniProt Q15047); cell-free assay, inhibitor, FP; 0.5 µM).
For `CCCCCCCCCCCCC/C=C/C=O`, “isoTOP-ABPP competition ratio” read 1.2 (Bridging integrator 3 (BIN3, Homo sapiens, UniProt Q9NQY0); competitive isoTOP-ABPP, item: BIN3 cysteine peptide; Ramos soluble proteome; 100 µM, together with: iodoacetamide probe; reference: DMSO over compound-treated, higher = stronger cysteine blockade).
The remaining binding of `Nc1ncc(-c2cc(-c3cnn(CC(F)(F)F)c3)ncc2F)nc1C(=O)NC1CNCC(F)C1` (stereo not drawn) is reported as 0% (IRAK3; KINOMEscan; 1 µM; reference: control).
`Cn1nc(CC(=O)O)c(=O)c2c(=O)[nH]c(N)nc21` gave a melting temperature of 73.8 °C (folP; CETSA HiBiT; whole cells).
For `CC(C)C[C@@H]1NC(=O)[C@@H]2CSSC[C@@H](C(=O)NCC(=O)O)NC(=O)[C@H](Cc3ccccc3)NC(=O)CNC(=O)[C@H](CC(N)=O)NC(=O)[C@@H]3CCCN3C(=O)CNC(=O)[C@@H]3CSSC[C@H](NC(=O)[C@H](CCCNC(=N)N)NC(=O)[C@@H]4CCCN4C(=O)[C@H](Cc4c[nH]cn4)NC(=O)[C@H](CCCCN)NC(=O)[C@H](C(C)C)NC(=O)[C@H](CCCNC(=N)N)NC(=O)[C@H](CC(N)=O)NC(=O)[C@@H]4CCCN4C(=O)[C@H](CO)NC(=O)[C@H](CCC(N)=O)NC(=O)[C@@H](NC(=O)CN)CSSC[C@H](NC(=O)CNC(=O)[C@H](C)NC1=O)C(=O)N[C@@H](C(C)C)C(=O)N3)C(=O)N[C@@H](CCCCN)C(=O)N[C@@H](CCC(N)=O)C(=O)N[C@@H](CC(=O)O)C(=O)N[C@@H](CO)C(=O)N[C@@H](CC(=O)O)C(=O)N2`, the kon was 1.01e+06 ± 150000 M⁻¹ s⁻¹ (Low-density lipoprotein receptor-related protein 6, E1 domain (LRP6, Homo sapiens, UniProt O75581); binding, SPR; pH 7.5).

Excerpt of the above:
The melting temperature of `Cn1nc(CCC#N)c(=O)c2c(=O)[nH]c(N)nc21` is reported as 61.2 °C (folP; CETSA HiBiT; Escherichia coli, whole cells).
The remaining activity of `COc1ccccc1-c1ccncc1C(=O)Nc1nnc(OCc2ccc(Cl)cc2)s1` is reported as 110% (RECQL5 (Homo sapiens, UniProt O94762); ATPase activity, ADP-Glo; 0.06 µM, 1 h).
